Experimental data of several laboratories.
Several values in a cell are separate wells, animals, samples, runs or records. Numbers after ± are the reported error.

Compound | assay | test system | setting | how to read | quantity | result
CC(C)C[C@H](NC(=O)[C@H](CCCCN)NC(=O)OCC1c2ccccc2-c2ccccc21)C(=O)N[C@H](C(=O)N[C@@H](Cc1ccccc1)C(=O)N[C@@H](Cc1ccccc1)C(=O)N[C@@H](CCCCN)C(=O)NCC(=O)N[C@@H](Cc1ccccc1)C(=O)N[C@@H](C)C(=O)N[C@@H](Cc1c[nH]c2ccccc12)C(=O)N[C@@H](CC(N)=O)C(=O)N[C@H](C(=O)N[C@H]1CSSC[C@@H](C(=O)N[C@@H](Cc2c[nH]cn2)C(=O)N[C@@H](CCCNC(=N)N)C(=O)N[C@@H](CCCNC(=N)N)C(=O)N[C@@H](C)C(=O)N[C@@H](CC(N)=O)C(N)=O)NC(=O)[C@H](C(C)C)NC(=O)[C@H](CCCNC(=N)N)NC(=O)[C@H](C(C)C)NC(=O)CNC(=O)[C@H](CC(N)=O)NC(=O)[C@H](CCCNC(=N)N)NC(=O)[C@H](Cc2ccc(O)cc2)NC(=O)[C@H](C(C)C)NC1=O)C(C)C)C(C)C |  | ICR mice, blood | intraperitoneal, 10 mg/kg, day 5 |  | plateletcrit | 0.03 ± 0.01%
COc1cc(C(=O)NC2CCN(C)CC2)c(F)cc1Nc1ncc(C(F)(F)F)c(Oc2cccc3c2C(=O)N(C)C3)n1 |  | human patients, urine | oral, 25 mg single dose, geometric mean | relative to: dose | fraction excreted in urine (0-48 h) | 6.15%
O=S(=O)(Nc1ccccc1)c1ccc(NC(=S)Nc2ccccc2)cc1 |  | mouse, male, liver | oral, 80 mg/kg daily, 14 days | relative to: body weight | relative organ weight | 5.62%
Nc1nc2cc(-c3ccc4ncc(C(=O)N5CCOCC5)n4c3)ccc2o1 | item: Constipation | advanced solid tumour patients | dose not given, all grades, all doses |  | patients with adverse event | 35%
O=[N+]([O-])c1ccc2c(c1)S(=O)(=O)C=C2 | flow cytometry | male C57BL/6 mice, spleen | i.p., 10 mg/kg, 8 days | relative to: CD45+ cells | CD4+ cells | 16.9%
C[C@]1(CO)Cc2ncn(-c3ccc(C#N)c(Cl)c3)c2C(=O)O1 |  | human | 40 mg multiple doses, fasted |  | subjects with drug-related somnolence | 0%
CC1(C)C(C=C(Cl)Cl)C1C(=O)OC(C#N)c1ccc(F)c(Oc2ccccc2)c1 (stereo not shown) | item: CYP3A5 | human, age 1 year, recombinant human CYP3A5 | 0.1 µM |  | enzyme contribution to clearance | 0.21%
Cn1cc(-c2nc(N[C@@H]3CCCC[C@@H]3N)c(F)c3c2C(=O)NC3)cn1 | epistaxis | patients with relapsed or refractory AML | oral, 140 mg once daily |  | adverse events | 20%
CO[C@H]1C[C@@H]2CC[C@@H](C)[C@@](O)(O2)C(=O)C(=O)N2CCCC[C@H]2C(=O)O[C@H]([C@H](C)C[C@@H]2CC[C@@H](OC(=O)NCCOCCOCCOCCOCCOCCOCCOCCOCCC(=O)N3CCc4cc(Cn5nc(-c6ccc7oc(N)nc7c6)c6c(N)ncnc65)ccc4C3)[C@H](OC)C2)C[C@@H](O)[C@H](C)/C=C(\C)[C@@H](O)[C@@H](OC)C(=O)[C@H](C)C[C@H](C)/C=C/C=C/C=C/1C | phase 1 dose escalation, item: mucositis | advanced solid tumour patients | intravenous, 16 mg weekly, any grade |  | dose-reducing adverse events | 25%
C=CC(=O)N[C@H]1C=C(C)c2c(-c3cnc4ccccc4c3)c3c(N)ncnc3n2C1 | two-compartment PK model | mouse, plasma | oral, dose not given |  | peripheral volume of distribution | 3.83 L
O=c1ccc2ncc(=O)n3c2n1C[C@H]3CN1CCC(NCc2cc3c(cn2)OCCC3)CC1 |  | healthy human volunteers | oral, 1500 mg, rifampicin cohort, with: rifampicin 600 mg |  | incidence of any adverse event | 29%
COc1ncccc1-c1cnn2ccc(N3CCN(C(=O)OC(C)C)CC3)nc12 |  | mouse nerve ligation model, brain | oral, 10 mg/kg, 30 min after last dose, repeat dosing day 4 |  | drug concentration | 6.2 µM
CNC(=O)c1cc(Oc2ccc(NC(=O)Nc3cc(C(C)(C)C)nn3-c3ccc4ncccc4c3)c(F)c2)ccn1 | vision blurred, NCI CTC v3.0 | human patients | oral, all dose levels |  | related SAE | 2%
C[C@H]1COCCN1c1nc(NCc2cccnc2C(F)(F)F)c2cccnc2n1 |  | conscious rat | intravenous, 10 mg/kg | relative to: control | heart rate change | 6.5%
COc1cccc(Oc2ccccc2NC(=O)CNC(=O)c2cccc3ccccc23)c1 |  | esterase-deficient SCID mice, male | oral, 100 mg/kg/day, 14 days, toxicity study |  | serum sodium | 162 mmol/L and 164 mmol/L and 165 mmol/L
CN1CCN(S(=O)(=O)c2cc([N+](=O)[O-])ccc2N(CCOS(C)(=O)=O)CCOS(C)(=O)=O)CC1 |  | naive NOD/SCID mice, pooled blood | intraperitoneal, 25 mg/kg, week 4 |  | calcium | 2.7 mmol/L
C[C@@H]1NC(=O)[C@H](CCCCNC(=O)CO/N=C/C(=O)NCCCC[C@@H]2NC(=O)[C@@H](Cc3ccccc3)NC(=O)[C@H](CC(=O)O)NC(=O)CNC(=O)[C@H](CCCNC(=N)N)NC2=O)NC(=O)CNC(=O)[C@@H]2CCCN2C(=O)[C@H](CCCCNC(=O)CO/N=C/C(=O)NCCCC[C@@H]2NC(=O)[C@@H](Cc3ccccc3)NC(=O)[C@H](CC(=O)O)NC(=O)CNC(=O)[C@H](CCCNC(=N)N)NC2=O)NC(=O)[C@H](CCCCNC(=O)CCNC(=O)CCNC(=O)CCNC(=O)[C@H](CCCCN)NC(=O)[C@H](Cc2ccccc2)NC(=O)CNC(=O)CN2CCCNCCNCCCNCC2)NC(=O)[C@H](CCCCNC(=O)CO/N=C/C(=O)NCCCC[C@@H]2NC(=O)[C@@H](Cc3ccccc3)NC(=O)[C@H](CC(=O)O)NC(=O)CNC(=O)[C@H](CCCNC(=N)N)NC2=O)NC(=O)CNC(=O)[C@@H]2CCCN2C(=O)[C@H](CCCCNC(=O)CO/N=C/C(=O)NCCCC[C@@H]2NC(=O)[C@@H](Cc3ccccc3)NC(=O)[C@H](CC(=O)O)NC(=O)CNC(=O)[C@H](CCCNC(=N)N)NC2=O)NC1=O [copper-64 labelled] |  | normal mice, heart | intravenous, 0.74 MBq, 3 h post-injection |  | tissue uptake | 1.9 ± 0.14 %ID/g
Cc1n[nH]c(C)c1CSC1CCCCC1 | reversed-phase HPLC | acetonitrile-water |  |  | logP | 1.65 ± 0.3
S=c1oc(-c2ccccc2)nn1CN1CCN(Cc2ccccc2)CC1 |  | Wistar rat female | oral, 500 mg/kg, acute toxicity OECD 423 |  | serum creatinine | 0.62 ± 0.07 mg/dL
CC(C)(c1ccccc1)c1cc(-n2nc3ccccc3n2)c(O)c(C(C)(C)c2ccccc2)c1 |  | human aged 3-6 years | concentration not given, sunscreen, 95th percentile |  | daily dermal exposure dose | 1.97 ng/kg/day
C[C@]12CC[C@H](n3ccnc3)CC1=CC[C@@H]1[C@@H]2CC[C@]2(C)C(n3cnc4ccccc43)=CC[C@@H]12.Cl.Cl |  | CD-1 mice, male, plasma | oral, 10 mg/kg | relative to: intravenous 1 mg/kg | oral bioavailability | 176%
CC(=O)c1c(C)c2cnc(Nc3ccc(C4CCN(CCS(C)(=O)=O)CC4)cn3)nc2n(C2CCCC2)c1=O |  | human, plasma | oral, 50 mg twice daily, day 21, multiple doses, with: letrozole |  | AUC(0-t) | 550 ng·h/mL
CC[C@H](C)[C@H](NC(=O)[C@H](C)NC(=O)[C@H](CCCCN)NC(=O)[C@H](CC(C)C)NC(=O)[C@H](C)NC(=O)[C@@H](NC(=O)[C@H](Cc1c[nH]cn1)NC(=O)[C@H](CC(C)C)NC(=O)[C@@H](NC(=O)[C@@H](NC(=O)[C@H](CCCCN)NC(=O)[C@H](C)NC(=O)[C@H](C)NC(=O)[C@H](CO)NC(=O)[C@H](CCCCN)NC(=O)[C@H](Cc1ccccc1)NC(=O)[C@@H](NC(=O)[C@H](CCCCN)NC(=O)[C@H](CC(C)C)NC(=O)[C@H](Cc1ccccc1)NC(=O)[C@H](CO)NC(=O)[C@H](CCCCN)NC(=O)[C@H](Cc1c[nH]c2ccccc12)NC(=O)[C@H](CCCCN)NC(C)=O)[C@@H](C)O)[C@@H](C)O)C(C)C)[C@@H](C)O)C(=O)N[C@@H](CO)C(=O)N[C@@H](CO)C(N)=O |  | BALB/c mice, plasma | intraperitoneal, 0.1 mg per animal |  | AUC(0-t) | 582 ng·h/mL
CCCC(CCC)NC(=O)c1ccc2c(c1)OCO2 |  | Swiss albino CD-1 mice, male, bone marrow | intraperitoneal, 350 mg/kg, 36 h |  | PCE/NCE ratio | 0.9
CC[C@H](C)[C@H](NC(=O)[C@H](Cc1ccccc1)NC(=O)[C@H](CCC(=O)O)NC(=O)[C@H](CCCNC(=N)N)NC(=O)[C@H](C)NC(=O)[C@H](C)NC(=O)[C@H](CCC(N)=O)NC(=O)[C@H](CCC(=O)O)NC(=O)[C@H](CCC(=O)O)NC(=O)[C@H](CC(C)C)NC(=O)[C@H](Cc1ccc(O)cc1)NC(=O)[C@H](CO)NC(=O)[C@H](CO)NC(=O)[C@@H](NC(=O)[C@H](CC(=O)O)NC(=O)[C@H](CO)NC(=O)[C@@H](NC(=O)[C@H](Cc1ccccc1)NC(=O)[C@@H](NC(=O)CNC(=O)[C@H](CCC(=O)O)NC(=O)[C@H](C)NC(=O)CCc1cnc[nH]1)[C@@H](C)O)[C@@H](C)O)C(C)C)C(=O)N[C@@H](C)C(=O)N[C@@H](Cc1c[nH]c2ccccc12)C(=O)N[C@@H](CC(C)C)C(=O)N[C@H](C(=O)N[C@@H](CCCNC(=N)N)C(=O)NCC(=O)N[C@@H](CCCNC(=N)N)C(=O)N[C@@H](CCCCNC(=O)COCCOCCNC(=O)COCCOCCNC(=O)CC[C@H](NC(=O)CCCCCCCCCCCCCCCCC(=O)O)C(=O)O)C(=O)NCC(=O)NCC(=O)N[C@@H](CO)C(=O)N[C@@H](CCCCNC(=O)[C@H](CCCCNc1c(NCCCCCN(O)C(=O)CCC(=O)NCCCCCN(O)C(=O)CCC(=O)NCCCCCN(O)C(C)=O)c(=O)c1=O)Nc1c(NCCCCCN(O)C(=O)CCC(=O)NCCCCCN(O)C(=O)CCC(=O)NCCCCCN(O)C(C)=O)c(=O)c1=O)C(=O)O)C(C)C [zirconium-89 labelled] | ex vivo gamma counting | male Sprague-Dawley rats, kidney | intravenous, 1 nmol, 24 h |  | tissue uptake | 7.57 %ID/g
CC(C)[C@@H]1NC(=O)CNC(=O)[C@H](CC(N)=O)NC(=O)[C@H](CCCNC(=N)N)NC(=O)[C@H](Cc2ccc(O)cc2)NC(=O)[C@H](C(C)C)NC(=O)[C@@H](NC(=O)[C@@H](NC(=O)[C@H](CC(N)=O)NC(=O)[C@H](Cc2c[nH]c3ccccc23)NC(=O)[C@H](C)NC(=O)[C@H](Cc2ccccc2)NC(=O)CN)C(C)C)CSSC[C@@H](C(=O)N[C@@H](Cc2cnc[nH]2)C(=O)N[C@@H](CCCNC(=N)N)C(=O)N[C@@H](CCCNC(=N)N)C(=O)N[C@@H](C)C(=O)N[C@@H](CC(N)=O)C(N)=O)NC(=O)[C@H](C(C)C)NC(=O)[C@H](CCCNC(=N)N)NC1=O |  | ICR mice, serum | intraperitoneal, 5 mg/kg, day 5 |  | calcium | 1.38 ± 0.02 mmol/L
CC(C)(O)c1cc(Nc2cc(Oc3cn(C4CC4)nc3C3CCOCC3)ccn2)ccn1 |  | grade 4 glioma expansion cohort | oral, 50 mg |  | headache, grade ≥3 | 5%
CCC[C@@](N)(CO)CCc1ccc(OCCCCCC(C)C)cc1 |  | hound dogs, male | intravenous, 0.25 mg/kg, median |  | Tmax | 15 min
